Assay results pooled from the literature.
A part holds a random share of what one study measured. Substitutions count along the parent as printed.

Study 1 — method: DHFR PCA, deep sequencing; medium: yeast; added: (+)-ABA 0.0091 µM; reference: wild-type fitted maximum; direction: higher = stronger binding; measurement: relative binding score
Target: ABI1, truncated, D143A, DHFR fusion (Arabidopsis thaliana)
Notes: methotrexate growth selection, single substitutions
Starting sequence: PYL1, truncated, DHFR fusion (Arabidopsis thaliana); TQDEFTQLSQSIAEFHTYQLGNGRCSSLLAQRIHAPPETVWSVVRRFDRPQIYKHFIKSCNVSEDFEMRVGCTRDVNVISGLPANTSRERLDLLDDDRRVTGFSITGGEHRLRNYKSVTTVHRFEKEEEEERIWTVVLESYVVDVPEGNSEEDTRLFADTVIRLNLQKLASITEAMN; partner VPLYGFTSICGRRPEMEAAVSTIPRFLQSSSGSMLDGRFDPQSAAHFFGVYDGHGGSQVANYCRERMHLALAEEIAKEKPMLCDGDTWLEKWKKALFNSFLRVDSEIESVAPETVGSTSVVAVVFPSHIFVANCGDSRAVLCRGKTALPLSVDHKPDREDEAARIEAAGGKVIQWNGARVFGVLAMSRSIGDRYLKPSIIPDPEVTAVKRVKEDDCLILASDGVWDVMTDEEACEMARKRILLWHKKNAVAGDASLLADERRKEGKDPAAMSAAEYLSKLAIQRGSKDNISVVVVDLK
D92W: -5.11%
G81E: 7.83%
E89I: 35.5%
I133Y: 16.6%
H34T: 5.16%
P36L: 5.89%
R45I: -5.17%
E67N: 8.06%
F157G: -3.08%
F15D: -3.64%
Y18K: -3.01%

Study 2 — method: protein binding microarray; molecule type: double-stranded DNA, one strand shown; medium: in vitro; concentration: not given; reference: not given; direction: higher = stronger binding; measurement: E-score
Target: Histone acetyltransferase KAT6A, both winged helices, GST fusion (KAT6A, Homo sapiens, UniProt Q92794, residues 1-181)
Notes: 8-mer, flanks averaged, mean of 2 arrays, mostly near background
Target sequence (chain): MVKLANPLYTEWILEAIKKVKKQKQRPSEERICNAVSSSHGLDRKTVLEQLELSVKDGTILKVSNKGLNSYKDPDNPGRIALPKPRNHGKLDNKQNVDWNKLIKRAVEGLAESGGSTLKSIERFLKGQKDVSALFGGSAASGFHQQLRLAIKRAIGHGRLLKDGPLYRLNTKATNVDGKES
CTCAGAGC: -0.00566
CTGCGCCA: 0.104
ATACGGCG: 0.335
GTACTAGA: -0.0226
CCCGTGAA: 0.165
CATGAGAA: -0.0425
GCCGCCAA: 0.215
AGCATTGA: -0.188
CATGAAAG: -0.151
TCGCGTAA: 0.206
GGAGATTA: -0.00885
ACTGCTTG: -0.159
AAGAAGGC: -0.122
AAGGATAA: -0.124
AACACAGA: -0.12
CCTGCGTA: 0.0688
AAGCTTTC: 0.136
ACCAAAGC: -0.0306
AGTCTAAG: -0.0195
CCTTGGAG: -0.135

Study 3 — method: RNA Bind-n-Seq; molecule type: RNA; medium: in vitro; concentration: 200 nM; notes: whole 134-nt RNA, ends assumed; added: 150 mM LiCl; reference: input library; direction: higher = stronger binding; measurement: log2 enrichment; library: 7-deaza-guanosine replaces G
Target: Ras GTPase-activating protein-binding protein 1, full length (G3BP1, Homo sapiens, UniProt Q13283)
Sequence of UniProt Q13283 (whole entry, looked up): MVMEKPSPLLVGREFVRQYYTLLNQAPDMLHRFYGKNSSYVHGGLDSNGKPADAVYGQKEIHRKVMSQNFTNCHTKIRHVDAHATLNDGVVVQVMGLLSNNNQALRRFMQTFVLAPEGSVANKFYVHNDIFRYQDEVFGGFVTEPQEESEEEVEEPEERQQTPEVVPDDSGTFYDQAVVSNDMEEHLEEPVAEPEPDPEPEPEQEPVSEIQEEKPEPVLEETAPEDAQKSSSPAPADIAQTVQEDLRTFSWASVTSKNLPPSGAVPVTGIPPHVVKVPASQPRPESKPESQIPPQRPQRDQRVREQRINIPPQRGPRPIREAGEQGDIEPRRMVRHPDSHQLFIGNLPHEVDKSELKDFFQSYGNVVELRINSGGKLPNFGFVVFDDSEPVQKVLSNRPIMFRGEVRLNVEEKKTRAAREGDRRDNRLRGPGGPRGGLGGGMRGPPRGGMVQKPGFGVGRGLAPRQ
Shared flanks, not repeated: GGGAGUUCUACAGUCCGACGAUC … UGGAAUUCUCGGGUGUCAAGG
CCUGUGCUACACAUCGUAUGUACCGAAUCGGAAAAAAAGGGAAAAAAAGGGAAAAAAAGGAAAGUAUUAUGUUACGCCGUUCGGAUCUGC: -0.16
UGUGCUACACAUCGUAUGUACCGAAUCGGGGCCCCCCCGGCCCCCCCGGGGCCCCCCCGGGGAAAGUAUUAUGUUACGCCGUUCGGAUCU: 0.874
UCAAGUCCUGUGCUACACAUCGUAUGUACCGAAUCGGGUUUGGGGUUUGGUUUGGAAAGUAUUAUGUUACGCCGUUCGGAUCUGCACUUC: -0.272
GUCCUGUGCUACACAUCGUAUGUACCGAAUCGGGUUUGGGUUUUUGGGAAAAAAAGGGAAAGUAUUAUGUUACGCCGUUCGGAUCUGCAC: -0.581
CAGCAGCAGAGUGAGUGGAUUUUAUUUUUCGUUAUUGUUGGUGGUUUAAAAAAUUCCCCCCAUGUAAUUAUUGUGAACACCUUGCUUUGU: -0.932
CCUCAAGUCCUGUGCUACACAUCGUAUGUACCGAAUCGGGGAGGGGAGGAGGGAAAGUAUUAUGUUACGCCGUUCGGAUCUGCACUUCCA: 0.732
GUCCUGUGCUACACAUCGUAUGUACCGAAUCGGUUUUUUGGGUUUUUUGGUUUUUUGGGAAAGUAUUAUGUUACGCCGUUCGGAUCUGCA: -1.26
UGGGAGGUGGAUUUUGUUUAUUUUUUUAGCUCAUUUCCAGGGGUGGGAAUUUUUUUUUAAUAUGUGUCAUGAAUAAAGUUGUUUUUGAUA: -0.37
CCUCAAGUCCUGUGCUACACAUCGUAUGUACCGAAUCGGUGGGGUGGGGUGGAAAGUAUUAUGUUACGCCGUUCGGAUCUGCACUUCCAG: -0.713
UGUGCUACACAUCGUAUGUACCGAAUCGGGGAAAAAGGGGUUUUUUUGGGGAAAAAAAGGGGAAAGUAUUAUGUUACGCCGUUCGGAUCU: 0.00511
CAAGUCCUGUGCUACACAUCGUAUGUACCGAAUCGGGGAGGGGUUUGGGGUGGGGAAAGUAUUAUGUUACGCCGUUCGGAUCUGCACUUC: 0.343

Study 4 — method: universal PBM; molecule type: double-stranded DNA, one strand shown; medium: in vitro; concentration: 600 nM; direction: higher = stronger binding; measurement: E-score
Target: Sal-like protein 4, full length isoform A (SALL4, Homo sapiens, UniProt Q9UJQ4, residues 1-1053)
Sequence of UniProt Q9UJQ4 (whole entry, looked up): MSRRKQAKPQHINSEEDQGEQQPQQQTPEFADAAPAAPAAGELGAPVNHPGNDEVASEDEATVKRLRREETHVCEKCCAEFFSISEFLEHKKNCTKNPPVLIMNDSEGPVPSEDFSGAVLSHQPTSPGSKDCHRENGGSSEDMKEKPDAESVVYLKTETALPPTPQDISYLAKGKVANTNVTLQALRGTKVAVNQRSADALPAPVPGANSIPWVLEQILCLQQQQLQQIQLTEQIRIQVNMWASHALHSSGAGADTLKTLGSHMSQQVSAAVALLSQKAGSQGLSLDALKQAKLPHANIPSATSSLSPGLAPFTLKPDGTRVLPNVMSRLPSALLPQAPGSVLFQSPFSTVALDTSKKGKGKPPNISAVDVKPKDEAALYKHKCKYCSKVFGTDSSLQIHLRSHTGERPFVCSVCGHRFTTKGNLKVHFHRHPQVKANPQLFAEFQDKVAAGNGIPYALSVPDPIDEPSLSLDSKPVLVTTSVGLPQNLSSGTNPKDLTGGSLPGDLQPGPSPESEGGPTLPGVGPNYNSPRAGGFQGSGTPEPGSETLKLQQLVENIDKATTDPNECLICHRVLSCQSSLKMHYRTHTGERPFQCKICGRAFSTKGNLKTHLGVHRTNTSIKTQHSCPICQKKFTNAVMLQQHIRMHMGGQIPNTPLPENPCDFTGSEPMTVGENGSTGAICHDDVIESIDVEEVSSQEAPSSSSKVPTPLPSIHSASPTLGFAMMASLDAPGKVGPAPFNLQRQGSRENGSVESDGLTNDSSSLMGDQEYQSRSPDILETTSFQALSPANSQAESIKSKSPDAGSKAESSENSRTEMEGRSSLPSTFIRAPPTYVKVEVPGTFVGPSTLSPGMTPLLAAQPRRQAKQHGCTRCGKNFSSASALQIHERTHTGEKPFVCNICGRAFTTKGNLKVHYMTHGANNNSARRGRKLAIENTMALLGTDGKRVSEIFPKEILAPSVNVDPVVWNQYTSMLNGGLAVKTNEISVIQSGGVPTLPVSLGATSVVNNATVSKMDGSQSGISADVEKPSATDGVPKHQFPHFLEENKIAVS
Notes: 8-mer, flanks averaged, mean of replicates
TAGTAAGA: 0.124
ATCTTGTG: 0.0333
GGTCTTTA: 0.132
ATTGCACG: 0.0353
AAAGTCGG: -0.0524
AGTCGTTC: -0.0376
CATTAGCG: 0.0297
CGACGGAC: -0.246
ACGCTCCC: -0.174
ATTCTCTC: -0.0932
ATTCAAAG: 0.172
GAGCGCTC: -0.247
CGTTAACA: 0.082
CAGTCACC: -0.159
CCACTCGA: -0.0945
ATCTATCG: 0.109

Study 5 — method: protein-binding microarray; molecule type: double-stranded DNA, one strand shown; medium: in vitro; concentration: 250 nM; notes: 60-bp whole probe; added: salmon DNA 0.4 mg/ml; reference: random background probes; direction: higher = stronger binding; measurement: log fluorescence; shared flanks, not repeated: GCCTAGCAC … GTCTTGATTCGCTTGACGCTGCTG
Target: Interferon regulatory factor 5, full length, phosphomimetic (IRF5, Homo sapiens, UniProt Q13568-2, residues 1-514, K96S/S451D/S453D/S456D/S462D)
TTAGATTCCAGTTTCTATTAGTGCTAG: 3.81 z-score
TTATATTTCAGTTTCGATTAGTGCTAG: 10.3 z-score
GCCGATTCCAGTTTCGAGACGTGCTAG: 5.75 z-score
GATGGTCTCGGACTGGGGACGTGCTAG: -0.218 z-score
GACGTTATCGGTTTCGGGACGTGCTAG: 8.25 z-score
TTAGATATCAGACAGGATTAGTGCTAG: 0.138 z-score
TCATTTTTCACCTGCACACTGTGCTAG: 1.52 z-score
TTAGGTATCGGACAGGGTTAGTGCTAG: 1.55 z-score
TTAGATATCAGTTTCGCTTAGTGCTAG: 8.34 z-score
TCATTTCTCCTTTGTAAACTGTGCTAG: 1.92 z-score
GACGGTATAGGGTTTCGGGACGTGCTA: 1.37 z-score
TTAGATCTCAATTTCGATTAGTGCTAG: 6.81 z-score
GACCGTTTCGGACTGGGGACGTGCTAG: 2.61 z-score
GACGGACTGGACTTTCGGTACGTGCTA: 8.3 z-score
GCTTTTTTTTTTTTTTTTTTGTGCTAG: 1.12 z-score
GACGGACTGGGACTCGGGACGTGCTAG: -0.443 z-score
GACGGTTTCGGGATCGGGACGTGCTAG: 5.69 z-score
TTAGGACTGAGGTTTCGGTTAGTGCTA: 6.99 z-score

Study 6 — method: RNA Bind-n-Seq; molecule type: RNA; medium: in vitro; concentration: 365 nM; reference: no-protein control; direction: higher = stronger binding; measurement: RBNS enrichment (R)
Target: RNA binding protein fox-1 homolog 2, RRM domain, GST-SBP tag (RBFOX2, Homo sapiens, UniProt O43251-10, residues 100-194)
Notes: natural RNA segment, single round, ends assumed
Shared flanks, not repeated: GGGAGUUCUACAGUCCGACGAUC … UGGAAUUCUCGGGUGCCAA
Target sequence (chain): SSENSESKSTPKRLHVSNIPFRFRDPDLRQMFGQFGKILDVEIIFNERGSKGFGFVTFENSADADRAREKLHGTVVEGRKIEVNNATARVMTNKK
UUGCAAAUGCUUUGUGCUUUGACUGUCACCACGAAAAGGAAGAAAUUCAUGUCAGUGAAGAAAUGCAGAAUUUAAACAAAAUCAGCUUGAGUUUGUUUUACCAGAUGCUC: 0.449
UGCAAAUCUGAUGGCCUUAAUUUCCUUUUUGACACUGAAAGUUUUGUAAAAGAAAUCAUGUCCAUACACUUUGUUGCAAGAUGUGAAUUAUUGACACUGAACUUAAUAAC: 0.263
AAGAAAGGACUGUCCGUCUCCCUCUGUCUCCUCUCCCCCAAACCCAGCCUCCACCCGCACAAAGGGGCUCUAAAUCCCAGGCCUCAUCUCCCCACUGGCAGUCCGUGCUC: 1.11
UUUUGUUUUGGUGGUUGUUUUGGAAAAACAGUUUAUAAACUGAUUUUUGUAGUUUUGGUAUUUAAAGCAAAAAAACGAAAAACAAAAAACAAAAACAAACCUUUUGGUAA: 0.477
AAUGUAAGUCAGUCUCUUCUUUCAAAGGCAGAAGAUUAAACCCUACAGGUGGAUAGGGAUGCAGGGGCAGCCUUUCCCCGGGAAUCUGACUGGUCCGCACAACACACCCA: 0.406
AAUAUGAGGACUAGGGGCACACAAGAGUCUAGCUUCGUCUCCAGGACUCCCUUGGCUCAGAGUGUGGUGCUAGAAACUGGUCCCCAGCCCAGUCCCAGUACUGCCAUCUU: 0.443
CAGCUUACUGCAGCACUGUUGGUGUUCGGAGCUCUUCUGUGCCCUGGCUCCAUGCUUUCACCUACACAAGCAUCACCUUCCUAAUCACCGCGGGGCGGGGAGCGUGUGGC: 0.448
UAAAUGCCAUUAUUUUUAUAUGGAAAUUUUAUAGAAGAGCUAUUUCUGUAUACGUAAUUACUCCUGAUUUUCUGAAAUUGCUUCUGGUAGAUAACAGACAAGUCCUAAGC: 0.549
GGACGUUGAAACUUCUGCUUUCGGAACAGCGUGUGUUGGAAAGCUUGUUUGAGAAUGGCUACUAGAGUUUAAGAGGCUAUGUAUGGAGUUUGUUGGGGAUGUAGUGAUGG: 50.2
UCACUUUGCCCAUUACGUCAGAAGUAAGUGUCUGGGUGUGGUAGUAUAAGUUUCUUAAGGAAUUGUCCUGCUGACCUGUAUCUAACUAAUGAACUUAAGGGUCUGGGUUU: 0.257
UCCCCGUCCCUUUUCUGUCAGCCCAUCACAGCCACCUGCUCUGCUCAGACAGCCAGGCACCAGAAGUGAGAGCAGAAGUCUGCAUCCUGCCGAGCCGCCGCAGACGGAGC: 0.635
UUGAAAUAGUCUGUGUGAAGGUGAAAGUGCAGUUCAGUAAUAAACUGUGUUUACUCAGUGAACAAAGGCCUGGGCUCUUGUGUGCUCCGGGAUGGGGAAAGGAGGGGCCG: 0.43

Some of these lines once more (study 1):
D92W: -5.11%
G81E: 7.83%
E89I: 35.5%
I133Y: 16.6%
H34T: 5.16%
P36L: 5.89%
R45I: -5.17%
E67N: 8.06%
F157G: -3.08%
F15D: -3.64%
Y18K: -3.01%
